Measured values from different studies.
Every numbered part comes from another study and shows a few of its results, in no order.

Study 1
Target: Interferon regulatory factor 7, full length, phosphomimetic (IRF7, Homo sapiens, UniProt Q92985, residues 1-503, S471D/S472D/S475D/S476D/S477D/S483D/S484D/S487D)
Technique: protein-binding microarray
Form: double-stranded DNA, one strand shown
Sample: in vitro
Concentration: 2200 nM top
Notes: 60-bp whole probe
Added: salmon DNA 0.4 mg/ml
Reference: random background probes
Reading: higher = stronger binding
Shared flanks, not repeated: GCCTAGCAC … GTCTTGATTCGCTTGACGCTGCTG
Residues (chain): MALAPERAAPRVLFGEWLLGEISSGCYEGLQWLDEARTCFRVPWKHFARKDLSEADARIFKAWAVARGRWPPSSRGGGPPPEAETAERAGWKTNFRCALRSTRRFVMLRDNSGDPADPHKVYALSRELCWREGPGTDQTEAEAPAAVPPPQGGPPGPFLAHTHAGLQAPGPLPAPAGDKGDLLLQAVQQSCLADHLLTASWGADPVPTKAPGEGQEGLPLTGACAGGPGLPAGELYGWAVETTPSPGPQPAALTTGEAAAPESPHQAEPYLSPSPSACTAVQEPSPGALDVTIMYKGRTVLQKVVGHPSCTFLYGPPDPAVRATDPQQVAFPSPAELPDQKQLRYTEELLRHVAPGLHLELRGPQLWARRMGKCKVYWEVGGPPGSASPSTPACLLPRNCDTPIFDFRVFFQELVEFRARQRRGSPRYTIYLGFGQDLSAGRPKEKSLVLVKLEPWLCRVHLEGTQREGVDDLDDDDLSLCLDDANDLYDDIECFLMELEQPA
| Oligonucleotide | fitted relative affinity [z-score] |
| --- | --- |
| TTAGGTTTCGGTTCCGGCTAGTGCTAG | 11.4 |
| TCAAGTTGTACTTTCTAACTGTGCTAG | 1.72 |
| CAGTTTTCCTCTGTCATTTTGTGCTAG | 3.64 |
| TCAACTGTGTGTTTGAGACTGTGCTAG | 0.255 |
| TTAGGACTGGTTTTCCTTTAGTGCTAG | 1.28 |
| GACGATATAGGGACTGGAGACGTGCTA | -0.576 |
| TCAAGGTTCAAGTTTACCACTGTGCTA | -0.0222 |
| GACGATATTGGGTATCGAGACGTGCTA | 0.174 |
| GACGAACTGGGGACTGGAGATGTGCTA | -0.324 |
| ATGGCAAAAAAAAAAGATTTGTGCTAG | -1.79 |
| GACAGTATCGGGTATCGGGACGTGCTA | 0.383 |
| TTGGGTTTCGACTATCGGTTAGTGCTA | 3 |
| TCAAGCTTTTCATTTTTTACTGTGCTA | 0.858 |
| TTATGACTGCTTATCCTTTAGTGCTAG | 1.02 |
| TCAGCTTTCATTTATTTACTGTGCTAG | 1.76 |
| TCATACATGTGTTTAAGACTGTGCTAG | 0.606 |
| TTGGATTTCAGACTGGATTAGTGCTAG | 0.322 |
| TTAGGTATCCGTTTCCTTTAGTGCTAG | 1.98 |
| GTAGGTCTCGGACTGGGTTAGTGCTAG | -0.364 |
| CCGAGTCCCTATCTCCTCACGTGCTAG | 1.21 |
| TTAGGGTTCCTTATCCTTTAGTGCTAG | 0.617 |
| TTAGATTTCGGGAGTGGATTAGTGCTA | 0.401 |
| TTAGAGATCAGTCTCGATTAGTGCTAG | -0.381 |
| TTAGGTATCGGTATCGGATAGTGCTAG | 0.687 |
| TGATCTTCCTTCATGGCCTGGTGCTAG | 0.833 |

Study 2
Target: Prothrombin, mature alpha-thrombin (F2, Homo sapiens, UniProt P00734)
Technique: aptamer microarray, sandwich
Form: DNA with 2'F-ANA
Sample: in vitro
Concentration: 200 nM
Notes: whole 15-mer aptamer, many near background
Added: Cy3 exosite-II aptamer, 400 nM
Reading: higher = stronger binding
Oligonucleotide: GGTTGGTGTGGTTGG
| Modification | mean fluorescence intensity |
| --- | --- |
| 2'F-ANA at 5 8 11 12 | 142 a.u. |
| 2'F-ANA at 1 2 3 4 6 7 8 9 11 12 13 15 | 208 a.u. |
| 2'F-ANA at 4 5 7 9 11 12 13 | 80.5 a.u. |
| 2'F-ANA at 2 3 4 8 12 13 | 763 a.u. |
| 2'F-ANA at 1 2 4 5 9 12 14 15 | 62.2 a.u. |
| 2'F-ANA at 3 4 5 6 8 10 11 12 14 15 | 49.2 a.u. |
| 2'F-ANA at 1 2 3 6 7 8 9 11 13 15 | 146 a.u. |
| 2'F-ANA at 2 3 5 6 7 11 13 | 63.8 a.u. |
| 2'F-ANA at 2 3 4 6 12 15 | 766 a.u. |
| 2'F-ANA at 1 2 3 4 5 7 8 10 11 12 | 49.2 a.u. |
| 2'F-ANA at 1 3 4 5 7 11 12 13 15 | 69.4 a.u. |
| 2'F-ANA at 1 6 8 12 | 454 a.u. |
| 2'F-ANA at 1 2 3 5 7 8 9 11 12 15 | 108 a.u. |
| 2'F-ANA at 3 15 | 1220 a.u. |
| 2'F-ANA at 2 3 4 5 6 7 8 10 15 | 101 a.u. |
| 2'F-ANA at 1 2 4 5 6 7 8 9 10 11 13 14 15 | 55.8 a.u. |
| 2'F-ANA at 2 4 5 6 7 12 13 14 15 | 48.1 a.u. |
| 2'F-ANA at 1 2 6 7 8 | 162 a.u. |
| 2'F-ANA at 3 4 7 8 13 14 15 | 344 a.u. |
| 2'F-ANA at 3 4 5 7 8 10 12 13 | 54.5 a.u. |
| 2'F-ANA at 1 4 6 7 9 10 12 15 | 63 a.u. |
| 2'F-ANA at 1 4 6 7 8 9 10 15 | 66.8 a.u. |
| 2'F-ANA at 1 2 5 11 13 14 15 | 46.6 a.u. |
| 2'F-ANA at 1 2 3 4 5 7 9 14 15 | 49.8 a.u. |
| 2'F-ANA at 2 6 11 12 13 14 15 | 120 a.u. |

Study 3
Target: RNA binding protein fox-1 homolog 2, RRM domain, GST-SBP tag (RBFOX2, Homo sapiens, UniProt O43251-10, residues 100-194)
Technique: RNA Bind-n-Seq
Form: RNA
Sample: in vitro
Concentration: 365 nM
Notes: natural RNA segment, single round, ends assumed
Reference: no-protein control
Reading: higher = stronger binding
Residues (chain): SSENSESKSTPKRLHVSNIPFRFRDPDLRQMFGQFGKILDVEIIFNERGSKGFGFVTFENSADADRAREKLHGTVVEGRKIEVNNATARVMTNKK
| Oligonucleotide | RBNS enrichment (R) |
| --- | --- |
| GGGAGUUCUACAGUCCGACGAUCUGCAGGCAUGGUCCCUGGAGCCGAGCCUUCACCACGCACUCGUCCAAGUUCGGAUGCGGGAACCUGGUCCCAGCUUGAGUUCCUGCCUUUCCCACCACAAAUUAUCAACUUGGAAUUCUCGGGUGCCAA | 0.315 |
| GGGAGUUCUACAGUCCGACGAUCGCAAGUGGCUCUCCCCAUUACCUUCUCAAGACCUCAGUGGGAGCACCAGCCAAUGGUACCAUCGGCUGGGCUGCCAGGUACCCUGGGCCUGGCGCUGCAGACCUGAGCUGUGGAAUUCUCGGGUGCCAA | 0.425 |
| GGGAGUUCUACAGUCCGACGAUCUCACUGGGACCCAAUAUAAAGCUGGAGCCAGAGAACUGAGUCCAGAGAAUUGUCCUCUGACCUCCAUGUGCGGUAGCCCACGUGACGCACCCAAUAAUAAUUAAAUAAAUUGGAAUUCUCGGGUGCCAA | 0.449 |
| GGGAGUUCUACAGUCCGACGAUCAGGAGGGUCAGGGCUGGCCUUCCUCUGUGCAUCACUCUGCUAGGUUGGGGGCCCCCGACCCACCAUACCUACGCCUAGGGAGCCCGUCCUCCAGUAUUCCGUCUGUAGCAUGGAAUUCUCGGGUGCCAA | 2.43 |
| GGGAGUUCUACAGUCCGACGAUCAUUGGAGCCCUCUCUCCCAUUCUGUGAUGAGUACAGCAGAGACCUUCCUGCUUUUUACUGGGGACUCCAGAUUUUCCCCAAACUUGCUUCUGUUGAGAUUUUUCCCUCACUGGAAUUCUCGGGUGCCAA | 0.72 |
| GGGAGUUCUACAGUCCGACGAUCCGGGGGAGAUUCUGACUCUUAAUCUGUAUUGUGAGAAAAUCCCAGCAAGUUCCAUGAUAUUAAAUCCAGGUCUGCAUUGGCCCGGGGCAAGAGUUUAACAUCUUCGGCCCUGGAAUUCUCGGGUGCCAA | 1.27 |
| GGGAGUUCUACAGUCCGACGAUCACACAGACACCUCAGUGUUGGACCUGUGAUGAAAGUUUCUGAGAAAUACUUUUGUUCCAAACCAUUAAGUAAUGUACGCAUGUUAAACACGUAGAGUGCCUGGCACUGGCUGGAAUUCUCGGGUGCCAA | 8.92 |
| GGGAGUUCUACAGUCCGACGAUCCAUGGGCUCUAGCAUCUACUCCGCUACCCAAUUCUGUCAUCUCCAAGCUGAGUUUCCUCUUCUGAGGCAGAGGCUGGAGCAGUUCUUUUUCAGUUCUCAUCCUCUCCAUCUGGAAUUCUCGGGUGCCAA | 0.632 |
| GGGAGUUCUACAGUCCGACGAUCAAGUGUACUUAUAUGUAAUCCUUAAAUUUUAAACUAGCUUGUGAUUUUUAAAUAUUUCUAAACUUUUCUUAAACCACUAAAAUUAAGCUCUUACUACUUAGUCAACUAUCUGGAAUUCUCGGGUGCCAA | 0.482 |
| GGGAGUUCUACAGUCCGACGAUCUUGAUUCCAUCCUGAGAAUUCAUGUUUAUAAUUAAAUGUGUGUUAAAUAUGCAAGCAUAUCACAAAUGUUCCUUGUCCUUUCAAAGUGCAUUUGUUCAUCAAGAUCAAUAUGGAAUUCUCGGGUGCCAA | 0.406 |
| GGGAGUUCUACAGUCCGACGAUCACCUACGGACGCCUGGAAGCUGCGACGCCCUGCACUGCUCCCGCCUCCACCAGCGCCUCCCACUGAUGUCGUGGUCCCGGGCCUGGCCCAGGGGCCCCUUUACAUGCCCUUGGAAUUCUCGGGUGCCAA | 0.452 |
| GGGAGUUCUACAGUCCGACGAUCAGUCACUACGCCCGGCCCAUGUCUGUCUGUCUUGAUGUGUGAGCAGCAGCUGUGGUCAUUAAACCAUUAGUUUACCCCUCUAGAACUGGGGUCUGCAAACUCCCACCUGCUGGAAUUCUCGGGUGCCAA | 0.515 |

Study 4
Target: Max dimerization protein 1, bHLH-zipper, MAX partner unstated (MXD1, Homo sapiens, UniProt Q05195, residues 56-136)
Technique: protein-binding microarray
Form: double-stranded DNA, one strand shown
Sample: in vitro
Concentration: not given
Notes: k-mer, scored over probes, only values ≥0.25
Reading: higher = stronger binding
Target sequence (chain): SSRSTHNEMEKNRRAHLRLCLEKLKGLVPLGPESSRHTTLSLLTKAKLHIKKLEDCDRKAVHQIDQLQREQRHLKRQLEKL
| Oligonucleotide | E-score |
| --- | --- |
| ACACCATG | 0.346 |
| GACCATGC | 0.444 |
| TGCCGGCA | 0.29 |
| CATGGGGG | 0.392 |
| CACCCCAC | 0.317 |
| ATAGCGTG | 0.38 |
| AGCATGAC | 0.365 |
| ATGGGTCG | 0.273 |
| CCACCCCC | 0.311 |
| ACGTGCAA | 0.37 |
| ACACATGC | 0.438 |
| ATGTGCGA | 0.281 |
| CATATGGC | 0.331 |
| AACGCATG | 0.442 |
| GCGTGTCC | 0.356 |
| AGCCCACG | 0.335 |
| CACGTTAC | 0.374 |
| CCACGCTC | 0.306 |
| ACGCGCAC | 0.282 |
